Published values from different studies.
Protocols differ between the studies behind these lines. Numbers after ± are the reported error.

SMILES | tested on | assay | system | setting | how to read | quantity | value
N=C(N)c1ccc(-c2ccc(-c3ccco3)o2)c(F)c1 | Salmonella enterica | sodium azide mutagenicity | TA1535 | 20 µM, 48 h, added: sodium azide 2 µg/plate after pre-exposure |  | inhibition | 106%
Cn1nnc2c(C(N)=O)ncn2c1=O | human respiratory syncytial virus | viral replication | BEAS-2B | 5 µM, 40 h |  | inhibition | 96 ± 1.3%
CCn1cc(C(=O)Nc2ncccc2C)c(=O)c2cc(F)c(N3CCN(C(=O)c4ccco4)CC3)cc21 | Mycolicibacterium smegmatis | microbial growth |  | 50 µM |  | inhibition | ~100%
N#Cc1ccc(-c2ccc(-c3cccs3)o2)c(F)c1 | Salmonella enterica | sodium azide mutagenicity | TA1535 | 20 µM, 48 h, added: sodium azide 2 µg/plate co-exposure |  | inhibition | 90%
CC[C@]1(O)C[C@H]2CN(CCc3c([nH]c4ccccc34)[C@@](C(=O)OC)(c3cc4c(cc3OC)N(C=O)[C@H]3[C@@](O)(C(=O)OC)[C@H](OC(C)=O)[C@]5(CC)C=CCN6CC[C@]43[C@@H]65)C2)C1 | human respiratory syncytial virus | viral replication | BEAS-2B | 5 µM, 40 h |  | inhibition | 79 ± 6.9%
CCn1cc(C(=O)Nc2cc(C)ccn2)c(=O)c2cc(F)c(N3CCN(C(=O)c4ccco4)CC3)cc21 | Mycolicibacterium smegmatis | microbial growth |  | 20 µM |  | inhibition | ~50%
N#Cc1ccc(-c2ccc(-c3ccco3)o2)cc1F | Salmonella enterica | sodium azide mutagenicity | TA1535 | 10 µM, 48 h, added: sodium azide 2 µg/plate co-exposure |  | inhibition | 94%
CNCC(=O)N[C@@H](CO)C(=O)N[C@H]1[C@H](O)[C@@H](O)[C@H](n2ccc(N)nc2=O)O[C@@H]1C(N)=O | Tobacco mosaic virus | inactivation activity | host plant | 500 µg/mL |  | inhibition | 83.1%
CCn1cc(C(=O)NCc2ccncc2)c(=O)c2cc(F)c(N3CCN(C(=O)c4ccco4)CC3)cc21 | Mycolicibacterium smegmatis | microbial growth |  | 50 µM |  | inhibition | ~20%
CN(Cc1cnc2nc(N)nc(N)c2n1)c1ccc(C(=O)N[C@@H](CCC(=O)O)C(=O)O)cc1 | human respiratory syncytial virus | viral replication | BEAS-2B | 5 µM, 40 h |  | inhibition | 99 ± 0.5%
C[C@H](Cn1cnc2c(N)ncnc21)OCP(=O)(O)O | human alphaherpesvirus 2 | virus production | human monocytes/macrophages | 5 µg/mL, 6 days |  | inhibition | 80%
CCn1cc(C(=O)Nc2nccs2)c(=O)c2cc(F)c(N3CCN(C(=O)c4ccco4)CC3)cc21 | Mycolicibacterium smegmatis | microbial growth |  | 50 µM |  | inhibition | ~20%
N=C(N)c1ccc(-c2ccc(-c3cccs3)o2)cc1F | Salmonella enterica | sodium azide mutagenicity | TA1535 | 20 µM, 48 h, added: sodium azide 2 µg/plate after pre-exposure |  | inhibition | 86%
CC(C)[C@]12O[C@H]1[C@@H]1O[C@]13[C@]1(O[C@H]1C[C@H]1C4=C(CC[C@@]13C)C(=O)OC4)[C@@H]2O | human respiratory syncytial virus | viral replication | BEAS-2B | 5 µM, 40 h |  | inhibition | 1.5 ± 21%
O=C(Nc1ccccc1-c1ccc(Cl)cc1)c1cccnc1Cl | Sclerotinia sclerotiorum | microbial growth |  | 50 µg/mL |  | inhibition | 100%
CN[C@@](C)(C[18F])C(=O)O | A549 tumour model |  | host not given, bone | 15 min, tumour-bearing |  | tracer uptake | 2.3 %ID/g
COC(=O)C[C@](O)(CCCC(C)(C)O)C(=O)O[C@@H]1C(OC)=C[C@]23CCCN2CCc2cc4c(cc2[C@H]13)OCO4 | human respiratory syncytial virus | viral replication | BEAS-2B | 5 µM, 40 h |  | inhibition | 98 ± 0.5%
N#Cc1ccc(-c2ccc(-c3cccs3)o2)cc1F | Salmonella enterica | sodium azide mutagenicity | TA1535 | 10 µM, 48 h, added: sodium azide 2 µg/plate after pre-exposure |  | inhibition | 94%
CC1(C)[C@@H](O[C@H]2O[C@H](C(=O)N[C@@H](Cc3ccc(O)cc3)C(=O)O)[C@@H](O)[C@H](O)[C@H]2O[C@@H]2O[C@H](C(=O)N[C@@H](Cc3ccc(O)cc3)C(=O)O)[C@@H](O)[C@H](O)[C@H]2O)CC[C@]2(C)[C@H]3C(=O)C=C4[C@@H]5C[C@@](C)(C(=O)N[C@@H](Cc6ccc(O)cc6)C(=O)O)CC[C@]5(C)CC[C@@]4(C)[C@]3(C)CC[C@@H]12 | dengue virus type 2 | viral replication | Vero E6 | 10 µM, 96 h | baseline: infected untreated | inhibition | > 50%

Repeated from above:
SMILES | tested on | assay | system | setting | how to read | quantity | value
C[C@H](Cn1cnc2c(N)ncnc21)OCP(=O)(O)O | human alphaherpesvirus 2 | virus production | human monocytes/macrophages | 5 µg/mL, 6 days |  | inhibition | 80%
CCn1cc(C(=O)Nc2nccs2)c(=O)c2cc(F)c(N3CCN(C(=O)c4ccco4)CC3)cc21 | Mycolicibacterium smegmatis | microbial growth |  | 50 µM |  | inhibition | ~20%
N=C(N)c1ccc(-c2ccc(-c3cccs3)o2)cc1F | Salmonella enterica | sodium azide mutagenicity | TA1535 | 20 µM, 48 h, added: sodium azide 2 µg/plate after pre-exposure |  | inhibition | 86%
